Measurements from different studies.
Protocols differ between the studies behind these lines. Numbers after ± are the reported error.

The Ki of `OB(O)c1cnn(-c2cccc(Cl)c2)c1` is reported as 40 nM (Beta-lactamase (ampC, Escherichia coli K-12, UniProt P00811); enzyme activity, inhibitor; added: CENTA).
The Ki of `CNC(=O)C1CCN(c2ccccc2NC(=O)c2ccc(-c3cc(O)ccc3C)c(C)n2)CC1` is reported as 0.5 nM (Ephrin type-B receptor 1 (EPHB1, Homo sapiens, UniProt P54762); cell-free assay, TR-FRET).
The Ki of `CC[C@H](C)[C@H](NC(=O)[C@@H]1CSSC[C@H](NC(=O)[C@H](Cc2ccc(O)cc2)NC(=O)CNC(C)=O)C(=O)N[C@@H](CO)C(=O)N[C@@H](CCCNC(=N)N)C(=O)N[C@@H](CO)C(=O)N[C@@H](Cc2ccc(O)cc2)C(=O)N2CCC[C@H]2C(=O)N2CCC[C@H]2C(=O)N[C@@H](C(C)C)C(=O)N1)C(=O)N1CCC[C@H]1C(=O)N[C@@H](CC(=O)O)C(=O)O` is reported as 140 nM (Mannan-binding lectin serine protease 2 (Homo sapiens, UniProt O00187); enzyme activity, inhibitor).
With `CC(=O)N(C)[C@@H](Cc1ccccc1)C(=O)N[C@@H](Cc1ccccc1)C(=O)N[C@@H](Cc1ccc2ccccc2c1)C(=O)N[C@@H](CCCNC(=N)N)C(=O)N[C@@H](CC(C)C)C(=O)N[C@@H](CCCNC(=N)N)C(=O)N[C@@H](CCCNC(=N)N)C(=O)N[C@H](C)C(=O)N[C@@H](CCCNC(=N)N)C(=O)N1CCC[C@H]1C(=O)N[C@@H](CCCCN)C(N)=O` the Ki was 27 nM (Kappa-type opioid receptor (Oprk1, Rattus norvegicus, UniProt P34975); ligand displacement, radioligand).
For `CCCN(CCC)CC1CCCCN1CCNC(=O)N1c2ccccc2C(=O)Nc2cccnc21` (stereo not shown), the Ki was 155 nM (Muscarinic acetylcholine receptor M3 (CHRM3, Homo sapiens, UniProt P20309); cell-free assay, radioligand).
`OC(COCc1ccccc1Cl)CN1CC=C(c2c[nH]c3ccccc23)CC1` (racemic) has a Ki of greater than 10000 nM (Sodium-dependent noradrenaline transporter (SLC6A2, Homo sapiens, UniProt P23975); ligand displacement, radioligand).
With `CC[C@H](C)[C@H](NC(=O)CN)C(=O)N[C@H](C(=O)N[C@@H](CC(N)=O)C(=O)N[C@H](C(=O)N[C@@H](CC(C)C)C(=O)N[C@@H](CCC(N)=O)C(=O)N[C@@H](CCCCN)C(=O)N[C@@H](Cc1ccc(O)cc1)C(=O)N[C@@H](Cc1ccc(O)cc1)C(=O)N[C@H]1CSSC[C@@H]2NC(=O)[C@H](CCCCN)NC(=O)[C@H](CCCNC(=N)N)NC(=O)CNC(=O)[C@H](CCCNC(=N)N)NC(=O)[C@H]([C@@H](C)O)NC(=O)[C@H](CO)NC(=O)[C@@H]3CSSC[C@H](NC(=O)[C@H](CCC(N)=O)NC(=O)CNC(=O)CNC(=O)[C@H](CCC(N)=O)NC(=O)[C@H](C(C)C)NC(=O)[C@H](CCCNC(=N)N)NC1=O)C(=O)N[C@@H](C)C(=O)N[C@@H](C(C)C)C(=O)N[C@@H](CC(C)C)C(=O)N[C@@H](CO)C(=O)N[C@@H](CSSC[C@@H](C(=O)N[C@@H](CCC(N)=O)C(=O)N[C@@H](CCC(N)=O)C(=O)N[C@@H](CCC(N)=O)C(=O)N[C@@H](CCC(N)=O)C(N)=O)NC2=O)C(=O)N[C@@H](CC(C)C)C(=O)N1CCC[C@H]1C(=O)N[C@@H](CCC(N)=O)C(=O)N[C@@H](CCC(=O)O)C(=O)N[C@@H](CCC(=O)O)C(=O)N[C@@H](CCC(N)=O)C(=O)N[C@@H]([C@@H](C)CC)C(=O)NCC(=O)N[C@@H](CCCCN)C(=O)N3)[C@@H](C)O)[C@@H](C)CC` the Ki was 422 nM (Melanocyte-stimulating hormone receptor (MC1R, Homo sapiens, UniProt Q01726); ligand displacement in cells).
`N=C(N)NC(=O)c1ccc(C(=O)NCCCC[C@H](NC(=O)CNC(=O)CCC(=O)NN=Cc2cc(C=NNC(=O)CCC(=O)NCC(=O)N[C@@H](CCCCNC(=O)c3ccc(C(=O)NC(=N)N)[nH]3)C(=O)N[C@@H](Cc3c[nH]c4ccccc34)C(=O)N[C@@H](CCCCN)C(N)=O)cc(C=NNC(=O)CCC(=O)NCC(=O)N[C@@H](CCCCNC(=O)c3ccc(C(=O)NC(=N)N)[nH]3)C(=O)N[C@@H](Cc3c[nH]c4ccccc34)C(=O)N[C@@H](CCCCN)C(N)=O)c2)C(=O)N[C@@H](Cc2c[nH]c3ccccc23)C(=O)N[C@@H](CCCCN)C(N)=O)[nH]1` gave a Ki of 30000 nM (Tryptase beta-2 (TPSB2, Homo sapiens, UniProt P20231); enzyme activity, low-affinity mode, inhibitor).
`CC(=O)N[C@@H](Cc1ccc(O)cc1)C(=O)N[C@@H](CCCNC(=N)NC(=O)NCCCCN)C(=O)N[C@@H](CC(C)C)C(=O)N[C@@H](CCCNC(=N)N)C(=O)N[C@@H](Cc1ccc(O)cc1)C(N)=O` has a Ki of greater than 5000 nM (Neuropeptide Y receptor type 1 (NPY1R, Homo sapiens, UniProt P25929); ligand displacement, radioligand).
The Ki of `O=c1sc2ccccc2n1CCCN1CCCCCC1` is reported as 4.1 ± 0.3 nM (Sigma non-opioid intracellular receptor 1 (Sigmar1, Rattus norvegicus, UniProt Q9R0C9); binding, radioligand binding; rat liver membranes; added: [3H](+)-pentazocine 5 nM).
